Published values collected from several papers.
A part holds a random share of what one study measured. Values joined by “and” are separate records of one study, mostly repeats; a detail may differ.
Sequence of UniProt P42336 (whole entry, unmodified, looked up): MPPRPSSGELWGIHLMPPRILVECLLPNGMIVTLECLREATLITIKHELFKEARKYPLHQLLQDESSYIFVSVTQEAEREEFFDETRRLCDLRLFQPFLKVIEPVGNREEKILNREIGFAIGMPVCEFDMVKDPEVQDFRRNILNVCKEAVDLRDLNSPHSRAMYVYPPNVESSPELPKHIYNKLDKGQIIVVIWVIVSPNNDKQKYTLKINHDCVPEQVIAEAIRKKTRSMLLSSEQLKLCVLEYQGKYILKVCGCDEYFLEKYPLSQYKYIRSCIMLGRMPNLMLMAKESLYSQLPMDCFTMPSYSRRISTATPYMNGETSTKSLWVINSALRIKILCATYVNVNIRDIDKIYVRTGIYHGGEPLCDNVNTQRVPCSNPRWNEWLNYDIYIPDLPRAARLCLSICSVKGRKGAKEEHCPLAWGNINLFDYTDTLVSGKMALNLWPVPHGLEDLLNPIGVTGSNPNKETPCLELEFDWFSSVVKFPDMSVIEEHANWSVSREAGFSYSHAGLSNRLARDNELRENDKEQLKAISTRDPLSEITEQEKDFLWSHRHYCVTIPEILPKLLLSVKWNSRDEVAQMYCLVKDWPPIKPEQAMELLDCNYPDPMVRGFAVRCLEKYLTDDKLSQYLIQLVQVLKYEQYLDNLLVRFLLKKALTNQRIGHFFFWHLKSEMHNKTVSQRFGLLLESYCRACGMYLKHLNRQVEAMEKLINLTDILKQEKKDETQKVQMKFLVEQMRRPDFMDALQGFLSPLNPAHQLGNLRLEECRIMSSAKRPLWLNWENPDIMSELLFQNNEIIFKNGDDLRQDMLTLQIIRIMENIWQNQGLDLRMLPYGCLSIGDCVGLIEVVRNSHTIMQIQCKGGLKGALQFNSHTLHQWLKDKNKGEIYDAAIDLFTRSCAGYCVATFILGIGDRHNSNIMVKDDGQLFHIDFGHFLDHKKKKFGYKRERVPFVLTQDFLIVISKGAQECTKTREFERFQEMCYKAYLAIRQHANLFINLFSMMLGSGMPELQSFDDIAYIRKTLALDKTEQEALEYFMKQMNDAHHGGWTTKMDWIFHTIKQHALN
Sequence of UniProt O75676 (whole entry, looked up): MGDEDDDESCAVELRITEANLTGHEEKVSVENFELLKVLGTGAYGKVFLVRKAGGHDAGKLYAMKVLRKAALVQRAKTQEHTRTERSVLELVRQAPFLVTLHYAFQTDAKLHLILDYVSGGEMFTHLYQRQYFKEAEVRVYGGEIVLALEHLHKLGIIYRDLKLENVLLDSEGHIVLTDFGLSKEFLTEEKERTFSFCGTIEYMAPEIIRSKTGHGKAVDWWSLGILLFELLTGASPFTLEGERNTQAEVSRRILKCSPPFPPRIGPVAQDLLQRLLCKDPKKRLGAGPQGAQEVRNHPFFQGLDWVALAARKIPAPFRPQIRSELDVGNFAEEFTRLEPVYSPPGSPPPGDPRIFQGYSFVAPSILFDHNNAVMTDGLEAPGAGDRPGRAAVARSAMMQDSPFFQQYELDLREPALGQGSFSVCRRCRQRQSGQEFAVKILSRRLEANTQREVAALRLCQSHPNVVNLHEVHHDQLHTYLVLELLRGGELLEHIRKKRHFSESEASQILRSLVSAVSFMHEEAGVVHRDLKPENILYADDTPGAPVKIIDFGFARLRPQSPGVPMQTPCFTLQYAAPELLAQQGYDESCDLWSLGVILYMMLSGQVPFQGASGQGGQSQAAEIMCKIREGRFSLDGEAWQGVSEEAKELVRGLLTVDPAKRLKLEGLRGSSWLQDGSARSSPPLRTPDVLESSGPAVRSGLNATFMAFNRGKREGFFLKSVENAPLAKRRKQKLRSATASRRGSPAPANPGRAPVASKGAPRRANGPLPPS
Sequence of UniProt Q8IW41 (whole entry, looked up): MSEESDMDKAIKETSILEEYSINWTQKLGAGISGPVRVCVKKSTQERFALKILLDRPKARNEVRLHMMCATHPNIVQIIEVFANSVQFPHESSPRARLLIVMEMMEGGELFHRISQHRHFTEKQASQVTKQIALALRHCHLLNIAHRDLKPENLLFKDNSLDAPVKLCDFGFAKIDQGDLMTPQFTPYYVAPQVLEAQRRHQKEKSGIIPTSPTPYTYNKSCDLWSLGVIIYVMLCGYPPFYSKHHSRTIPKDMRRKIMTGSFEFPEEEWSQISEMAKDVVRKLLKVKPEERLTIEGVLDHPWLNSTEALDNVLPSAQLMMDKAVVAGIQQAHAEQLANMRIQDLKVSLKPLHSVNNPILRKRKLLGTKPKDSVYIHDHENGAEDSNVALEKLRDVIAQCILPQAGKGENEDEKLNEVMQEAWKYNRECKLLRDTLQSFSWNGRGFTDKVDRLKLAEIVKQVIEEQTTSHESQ
Sequence of UniProt Q8WU08 (whole entry, looked up): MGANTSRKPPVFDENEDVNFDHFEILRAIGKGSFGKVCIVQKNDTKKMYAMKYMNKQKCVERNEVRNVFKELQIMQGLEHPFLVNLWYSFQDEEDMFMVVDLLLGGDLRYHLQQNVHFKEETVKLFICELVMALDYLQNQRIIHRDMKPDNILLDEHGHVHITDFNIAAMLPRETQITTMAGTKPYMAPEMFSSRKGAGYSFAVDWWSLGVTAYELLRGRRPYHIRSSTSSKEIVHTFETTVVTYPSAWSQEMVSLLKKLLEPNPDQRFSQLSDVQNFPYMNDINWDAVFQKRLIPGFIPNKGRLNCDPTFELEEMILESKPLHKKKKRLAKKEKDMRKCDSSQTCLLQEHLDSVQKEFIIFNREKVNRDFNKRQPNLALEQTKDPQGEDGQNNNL
Sequence of UniProt Q13464 (whole entry, looked up): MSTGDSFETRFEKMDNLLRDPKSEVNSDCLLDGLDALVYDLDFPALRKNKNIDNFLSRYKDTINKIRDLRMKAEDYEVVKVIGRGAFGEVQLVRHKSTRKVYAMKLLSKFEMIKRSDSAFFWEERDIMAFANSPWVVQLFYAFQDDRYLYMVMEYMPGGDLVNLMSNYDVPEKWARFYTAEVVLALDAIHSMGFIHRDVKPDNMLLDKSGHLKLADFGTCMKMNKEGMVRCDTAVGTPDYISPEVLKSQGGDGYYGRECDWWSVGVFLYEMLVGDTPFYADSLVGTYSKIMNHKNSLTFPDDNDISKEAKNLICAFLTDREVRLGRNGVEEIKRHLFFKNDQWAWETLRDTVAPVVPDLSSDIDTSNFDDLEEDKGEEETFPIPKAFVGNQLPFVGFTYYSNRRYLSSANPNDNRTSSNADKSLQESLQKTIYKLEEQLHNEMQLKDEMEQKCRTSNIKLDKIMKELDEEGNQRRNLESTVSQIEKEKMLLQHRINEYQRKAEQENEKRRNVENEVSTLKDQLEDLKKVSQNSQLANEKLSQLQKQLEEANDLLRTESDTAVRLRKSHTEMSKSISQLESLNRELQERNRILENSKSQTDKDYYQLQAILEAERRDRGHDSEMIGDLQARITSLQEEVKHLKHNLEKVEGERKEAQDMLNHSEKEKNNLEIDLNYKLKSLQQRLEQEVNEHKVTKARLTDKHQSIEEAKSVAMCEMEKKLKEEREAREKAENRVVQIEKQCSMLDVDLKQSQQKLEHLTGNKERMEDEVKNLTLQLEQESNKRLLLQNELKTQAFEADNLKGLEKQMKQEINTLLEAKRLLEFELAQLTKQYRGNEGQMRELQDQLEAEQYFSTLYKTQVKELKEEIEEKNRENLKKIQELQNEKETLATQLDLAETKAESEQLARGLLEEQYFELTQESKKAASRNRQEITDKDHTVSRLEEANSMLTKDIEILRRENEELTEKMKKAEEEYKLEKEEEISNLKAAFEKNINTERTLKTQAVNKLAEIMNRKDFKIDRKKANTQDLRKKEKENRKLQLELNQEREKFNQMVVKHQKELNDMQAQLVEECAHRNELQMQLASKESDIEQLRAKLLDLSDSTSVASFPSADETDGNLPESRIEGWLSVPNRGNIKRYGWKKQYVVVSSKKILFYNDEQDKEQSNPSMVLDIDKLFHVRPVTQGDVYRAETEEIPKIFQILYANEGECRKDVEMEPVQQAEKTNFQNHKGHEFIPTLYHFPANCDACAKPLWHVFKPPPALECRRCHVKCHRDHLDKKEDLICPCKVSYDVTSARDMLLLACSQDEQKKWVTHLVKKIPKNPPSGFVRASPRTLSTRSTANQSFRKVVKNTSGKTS
Sequence of UniProt Q02750 (whole entry, looked up): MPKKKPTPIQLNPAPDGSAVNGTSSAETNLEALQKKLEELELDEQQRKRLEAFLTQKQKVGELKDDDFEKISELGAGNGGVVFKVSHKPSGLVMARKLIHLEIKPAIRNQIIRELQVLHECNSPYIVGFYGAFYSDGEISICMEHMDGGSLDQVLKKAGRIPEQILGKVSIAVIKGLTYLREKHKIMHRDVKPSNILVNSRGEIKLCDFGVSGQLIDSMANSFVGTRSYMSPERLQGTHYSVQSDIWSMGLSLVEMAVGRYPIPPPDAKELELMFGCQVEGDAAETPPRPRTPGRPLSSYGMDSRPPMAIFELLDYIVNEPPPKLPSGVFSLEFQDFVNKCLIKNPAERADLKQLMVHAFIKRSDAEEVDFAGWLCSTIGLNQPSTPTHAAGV

Series 1
SMILES: CN(C)CCCn1cc(C2=C(c3c[nH]c4ccccc34)C(=O)NC2=O)c2ccccc21
Effect on: enzyme activity
Action: inhibitor
Tested at: 0.5 µM
Baseline: control
| target | remaining activity [%] |
| --- | --- |
| Mitogen-activated protein kinase 11 (MAPK11, Homo sapiens, UniProt Q15759) | 96.1 |
| Ribosomal protein S6 kinase alpha-4 (RPS6KA4, Homo sapiens, UniProt O75676) | 34.9 |
| Vascular endothelial growth factor receptor 2 (KDR, Homo sapiens, UniProt P35968) | 65.5 |
| Dual specificity protein kinase CLK3 (CLK3, Homo sapiens, UniProt P49761) | 94.3 |
| Rho-associated protein kinase 1 (ROCK1, Homo sapiens, UniProt Q13464) | 92.3 |
| Serine/threonine-protein kinase MARK2 (MARK2, Homo sapiens, UniProt Q7KZI7) | 71.7 |
| Mitogen-activated protein kinase 1 (MAPK1, Homo sapiens, UniProt P28482) | 100 |
| cGMP-dependent protein kinase 2 (PRKG2, Homo sapiens, UniProt Q13237) | 38.7 |
| Dual specificity protein kinase CLK4 (CLK4, Homo sapiens, UniProt Q9HAZ1) | 44.8 |
| Dual specificity mitogen-activated protein kinase kinase 1 (MAP2K1, Homo sapiens, UniProt Q02750) | 83.6 |
| Serine/threonine-protein kinase PLK3 (PLK3, Homo sapiens, UniProt Q9H4B4) | 94.9 |
| Discoidin domain-containing receptor 2 (DDR2, Homo sapiens, UniProt Q16832) | 111 |
| Cyclin-dependent kinase 1, with cyclin A (CDK1, Homo sapiens, UniProt P06493) | 100 |
| Tyrosine-protein kinase TXK (TXK, Homo sapiens, UniProt P42681) | 107 |

Series 2
Target: Calcium/calmodulin-dependent protein kinase type II subunit alpha (CAMK2A, Homo sapiens, UniProt Q9UQM7)
Sequence of UniProt Q9UQM7 (whole entry, looked up): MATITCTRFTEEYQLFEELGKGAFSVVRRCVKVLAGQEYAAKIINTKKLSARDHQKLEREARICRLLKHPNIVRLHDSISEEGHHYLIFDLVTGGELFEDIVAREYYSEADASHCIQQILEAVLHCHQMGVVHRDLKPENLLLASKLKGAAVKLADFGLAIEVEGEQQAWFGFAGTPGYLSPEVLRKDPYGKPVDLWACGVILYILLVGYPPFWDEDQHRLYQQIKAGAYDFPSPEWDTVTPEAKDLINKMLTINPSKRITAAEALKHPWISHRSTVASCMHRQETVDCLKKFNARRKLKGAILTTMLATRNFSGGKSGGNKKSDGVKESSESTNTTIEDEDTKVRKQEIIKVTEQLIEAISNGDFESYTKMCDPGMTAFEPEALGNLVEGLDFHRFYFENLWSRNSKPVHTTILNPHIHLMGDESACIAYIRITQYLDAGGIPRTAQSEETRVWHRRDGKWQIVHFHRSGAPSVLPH
Effect on: enzyme activity
Action: inhibitor
Tested at: 10 µM
| SMILES | inhibition |
| --- | --- |
| Cc1cnc(C(=O)NCCc2ccc(S(=O)(=O)NC(=O)NC3CCCCC3)cc2)cn1 | 4% |
| CC(=O)N[C@@H](Cc1ccc(O)cc1)C(=O)O | 17% |
| C[C@H](CC[C@@H](O[C@@H]1O[C@H](CO[C@@H]2O[C@H](CO)[C@@H](O)[C@H](O)[C@H]2O)[C@@H](O)[C@H](O)[C@H]1O)C(C)(C)O)[C@H]1CC[C@@]2(C)[C@@H]3CC=C4[C@@H](CC[C@H](O)C4(C)C)[C@]3(C)[C@H](O)C[C@]12C | 6% |
| CC[C@H](CC[C@@H](C)[C@H]1CC[C@H]2[C@@H]3CC=C4C[C@@H](O)CC[C@]4(C)[C@H]3CC[C@]12C)C(C)C | -0.11% and 0.21% and 0.24% |
| COc1ccc2[nH]c(=O)oc2c1 | -1% |
| COc1cc(CNC(=O)CCCCCCCC(C)C)ccc1O | -26% |
| Cc1cc2nc3c(=O)[nH]c(=O)nc-3n(C[C@H](O)[C@H](O)[C@H](O)CO)c2cc1C | 1% |
| CCC1=C[C@@H]2CN(C1)Cc1c([nH]c3ccccc13)[C@@](C(=O)OC)(c1cc3c(cc1OC)N(C)[C@H]1[C@@](O)(C(=O)OC)[C@H](OC(C)=O)[C@]4(CC)C=CCN5CC[C@]31[C@@H]54)C2 | 23% |
| COc1cc2c(cc1CC=C(C)C)C(=O)C[C@@H](c1ccc(O)cc1)O2 | -7% |
| COc1c(CC=C(C)C)c(O)cc2oc(=O)c(-c3ccc(O)cc3O)cc12 | -1% |
| Nc1ncc2ncn(CC3(OCP(=O)(O)O)CC3)c2n1 | -3% |
| C[C@H]1C[C@@H]2[C@H]([C@@H](O)C[C@@]3(C)[C@H]2CC[C@]3(O)C(=O)CO)[C@@]2(C)C=CC(=O)C=C12 | -6% |

Series 3
SMILES: COc1ccc2[nH]c3c4[nH]c5ccc(OC)cc5c4c4c(c3c2c1)C(=O)NC4=O
Tested at: 1 µM
| target | method | refers to | notes | baseline | remaining binding |
| --- | --- | --- | --- | --- | --- |
| Calcium/calmodulin-dependent protein kinase type II subunit delta (CAMK2D, Homo sapiens, UniProt Q13557) | competitive binding panel |  |  | vehicle | 64% |
| Cyclin-dependent kinase 2 (CDK2, Homo sapiens, UniProt P24941) | competitive binding panel |  |  | vehicle | 93% |
| Receptor-interacting serine/threonine-protein kinase 1 (RIPK1, Homo sapiens, UniProt Q13546) | competitive binding panel |  |  | vehicle | 90% |
| Maternal embryonic leucine zipper kinase (MELK, Homo sapiens, UniProt Q14680) | competitive binding panel |  |  | vehicle | 43% |
| Ribosomal protein S6 kinase alpha-4 (RPS6KA4, Homo sapiens, UniProt O75676) | competitive binding scan |  | N-terminal kinase domain 1 |  | 71% |
| Serine/threonine-protein kinase 32A (STK32A, Homo sapiens, UniProt Q8WU08) | competitive binding panel | YANK1 |  | vehicle | 69% |
| Mitogen-activated protein kinase kinase kinase 15 (MAP3K15, Homo sapiens, UniProt Q6ZN16) | competitive binding panel |  |  | vehicle | 64% |
| Serine/threonine-protein kinase 32C (STK32C, Homo sapiens, UniProt Q86UX6) | competitive binding panel | YANK3 |  | vehicle | 84% |
| MAP kinase-activated protein kinase 5 (MAPKAPK5, Homo sapiens, UniProt Q8IW41) | competitive binding panel |  |  | vehicle | 90% |
| Phosphatidylinositol 4,5-bisphosphate 3-kinase catalytic subunit alpha isoform (PIK3CA, Homo sapiens, UniProt P42336, H1047Y) | competitive binding panel |  |  | vehicle | 89% |
| Testis-specific serine/threonine-protein kinase 1 (TSSK1B, Homo sapiens, UniProt Q9BXA7) | competitive binding panel |  |  | vehicle | 89% |
| Ephrin type-B receptor 4 (EPHB4, Homo sapiens, UniProt P54760) | competitive binding panel |  |  | vehicle | 84% |

Series 4
SMILES: Nc1c(C(=O)NCc2ccc(C(=O)NCCCC3CCCCC3)cc2)cnn1-c1ccccc1
Effect on: cell-free assay
Method: competition with immobilised ligand
Tested at: 0.1 µM
| target | remaining binding [%] |
| --- | --- |
| Cyclin-dependent kinase 4 (CDK4, Homo sapiens, UniProt P11802) | 100 |
| Epidermal growth factor receptor (EGFR, Homo sapiens, UniProt P00533, L858R/T790M) | 96 |
| Phosphatidylinositol 4,5-bisphosphate 3-kinase catalytic subunit alpha isoform (PIK3CA, Homo sapiens, UniProt P42336, E545A) | 100 |
| Serine/threonine-protein kinase SIK3 (SIK3, Homo sapiens, UniProt Q9Y2K2) | 94 |
| Dual specificity tyrosine-phosphorylation-regulated kinase 1A (DYRK1A, Homo sapiens, UniProt Q13627) | 100 |
| Ephrin type-B receptor 3 (EPHB3, Homo sapiens, UniProt P54753) | 96 |
| Mitogen-activated protein kinase 15 (MAPK15, Homo sapiens, UniProt Q8TD08) | 100 |

A few entries again (series 3):
| target | method | refers to | notes | baseline | remaining binding |
| --- | --- | --- | --- | --- | --- |
| Serine/threonine-protein kinase 32C (STK32C, Homo sapiens, UniProt Q86UX6) | competitive binding panel | YANK3 |  | vehicle | 84% |
| Ephrin type-B receptor 4 (EPHB4, Homo sapiens, UniProt P54760) | competitive binding panel |  |  | vehicle | 84% |
| Serine/threonine-protein kinase 32A (STK32A, Homo sapiens, UniProt Q8WU08) | competitive binding panel | YANK1 |  | vehicle | 69% |
| Cyclin-dependent kinase 2 (CDK2, Homo sapiens, UniProt P24941) | competitive binding panel |  |  | vehicle | 93% |
| Testis-specific serine/threonine-protein kinase 1 (TSSK1B, Homo sapiens, UniProt Q9BXA7) | competitive binding panel |  |  | vehicle | 89% |
| Ribosomal protein S6 kinase alpha-4 (RPS6KA4, Homo sapiens, UniProt O75676) | competitive binding scan |  | N-terminal kinase domain 1 |  | 71% |
| Calcium/calmodulin-dependent protein kinase type II subunit delta (CAMK2D, Homo sapiens, UniProt Q13557) | competitive binding panel |  |  | vehicle | 64% |
| Mitogen-activated protein kinase kinase kinase 15 (MAP3K15, Homo sapiens, UniProt Q6ZN16) | competitive binding panel |  |  | vehicle | 64% |
